Measurements pooled from the literature.
Each line is one published result; not all experiments were run side by side. Values joined by “and” are separate records of one study, mostly repeats; a detail may differ. Numbers after ± are the reported error.
CDK5 with p25: Cyclin-dependent kinase 5, with p25 (CDK5, Homo sapiens, UniProt Q00535)
Chain of UniProt Q00535 (whole entry, looked up): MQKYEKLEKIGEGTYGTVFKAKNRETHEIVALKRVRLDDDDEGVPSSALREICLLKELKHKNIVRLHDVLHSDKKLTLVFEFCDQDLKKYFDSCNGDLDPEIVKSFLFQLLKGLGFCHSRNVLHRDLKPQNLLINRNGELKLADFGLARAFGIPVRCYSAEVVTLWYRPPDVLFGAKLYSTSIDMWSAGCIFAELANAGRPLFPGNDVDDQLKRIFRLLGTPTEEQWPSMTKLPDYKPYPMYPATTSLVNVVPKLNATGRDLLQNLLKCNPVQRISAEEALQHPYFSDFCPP
B1: human ADP/ATP translocase 3; sequence looked up; chain MTEQAISFAKDFLAGGIAAAISKTAVAPIERVKLLLQVQHASKQIAADKQYKGIVDCIVRIPKEQGVLSFWRGNLANVIRYFPTQALNFAFKDKYKQIFLGGVDKHTQFWRYFAGNLASGGAAGATSLCFVYPLDFARTRLAADVGKSGTEREFRGLGDCLVKITKSDGIRGLYQGFSVSVQGIIIYRAAYFGVYDTAKGMLPDPKNTHIVVSWMIAQTVTAVAGVVSYPFDTVRRRMMMQSGRKGADIMYTGTVDCWRKIFRDEGGKAFFKGAWSNVLRGMGGAFVLVLYDELKKVI
B2: chain MSEILPYGEDKMGRFGADPEGSDLSFSCRLQDTNSFFAGNQAKRPPKLGQIGRAKRVVIEDDRIDDVLKGMGEKPPSGV
Chain of UniProt Q64663 (whole entry, unmodified, looked up): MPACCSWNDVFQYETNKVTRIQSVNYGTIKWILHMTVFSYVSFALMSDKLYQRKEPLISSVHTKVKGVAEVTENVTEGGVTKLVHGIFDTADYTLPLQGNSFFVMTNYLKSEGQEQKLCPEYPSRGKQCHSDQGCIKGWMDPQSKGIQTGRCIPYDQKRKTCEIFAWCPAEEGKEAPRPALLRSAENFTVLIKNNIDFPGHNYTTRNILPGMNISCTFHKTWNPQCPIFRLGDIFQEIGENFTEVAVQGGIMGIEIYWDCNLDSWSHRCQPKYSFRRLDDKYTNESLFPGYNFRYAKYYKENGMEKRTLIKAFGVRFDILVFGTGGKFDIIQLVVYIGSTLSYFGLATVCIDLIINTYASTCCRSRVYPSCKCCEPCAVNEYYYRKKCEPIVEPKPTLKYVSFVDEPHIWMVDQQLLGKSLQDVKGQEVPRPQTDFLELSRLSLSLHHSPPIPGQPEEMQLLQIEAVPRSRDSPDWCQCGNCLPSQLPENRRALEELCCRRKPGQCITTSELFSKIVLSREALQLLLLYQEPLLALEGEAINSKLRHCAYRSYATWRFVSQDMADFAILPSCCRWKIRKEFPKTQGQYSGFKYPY
Chain of UniProt Q9UQM7 (whole entry, unmodified, looked up): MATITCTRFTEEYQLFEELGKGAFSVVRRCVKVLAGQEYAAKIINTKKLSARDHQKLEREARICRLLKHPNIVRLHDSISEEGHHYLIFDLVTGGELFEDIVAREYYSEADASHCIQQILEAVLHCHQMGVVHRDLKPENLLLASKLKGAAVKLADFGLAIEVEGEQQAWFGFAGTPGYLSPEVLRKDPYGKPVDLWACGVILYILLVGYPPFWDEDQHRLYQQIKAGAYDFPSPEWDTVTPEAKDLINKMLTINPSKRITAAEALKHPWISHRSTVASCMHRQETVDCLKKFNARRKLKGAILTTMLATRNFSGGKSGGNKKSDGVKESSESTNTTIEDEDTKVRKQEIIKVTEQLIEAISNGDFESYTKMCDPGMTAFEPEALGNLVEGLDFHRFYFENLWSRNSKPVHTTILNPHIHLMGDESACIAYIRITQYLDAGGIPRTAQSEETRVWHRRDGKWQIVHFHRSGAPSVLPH
Chain of UniProt Q5ANA3 (whole entry, looked up): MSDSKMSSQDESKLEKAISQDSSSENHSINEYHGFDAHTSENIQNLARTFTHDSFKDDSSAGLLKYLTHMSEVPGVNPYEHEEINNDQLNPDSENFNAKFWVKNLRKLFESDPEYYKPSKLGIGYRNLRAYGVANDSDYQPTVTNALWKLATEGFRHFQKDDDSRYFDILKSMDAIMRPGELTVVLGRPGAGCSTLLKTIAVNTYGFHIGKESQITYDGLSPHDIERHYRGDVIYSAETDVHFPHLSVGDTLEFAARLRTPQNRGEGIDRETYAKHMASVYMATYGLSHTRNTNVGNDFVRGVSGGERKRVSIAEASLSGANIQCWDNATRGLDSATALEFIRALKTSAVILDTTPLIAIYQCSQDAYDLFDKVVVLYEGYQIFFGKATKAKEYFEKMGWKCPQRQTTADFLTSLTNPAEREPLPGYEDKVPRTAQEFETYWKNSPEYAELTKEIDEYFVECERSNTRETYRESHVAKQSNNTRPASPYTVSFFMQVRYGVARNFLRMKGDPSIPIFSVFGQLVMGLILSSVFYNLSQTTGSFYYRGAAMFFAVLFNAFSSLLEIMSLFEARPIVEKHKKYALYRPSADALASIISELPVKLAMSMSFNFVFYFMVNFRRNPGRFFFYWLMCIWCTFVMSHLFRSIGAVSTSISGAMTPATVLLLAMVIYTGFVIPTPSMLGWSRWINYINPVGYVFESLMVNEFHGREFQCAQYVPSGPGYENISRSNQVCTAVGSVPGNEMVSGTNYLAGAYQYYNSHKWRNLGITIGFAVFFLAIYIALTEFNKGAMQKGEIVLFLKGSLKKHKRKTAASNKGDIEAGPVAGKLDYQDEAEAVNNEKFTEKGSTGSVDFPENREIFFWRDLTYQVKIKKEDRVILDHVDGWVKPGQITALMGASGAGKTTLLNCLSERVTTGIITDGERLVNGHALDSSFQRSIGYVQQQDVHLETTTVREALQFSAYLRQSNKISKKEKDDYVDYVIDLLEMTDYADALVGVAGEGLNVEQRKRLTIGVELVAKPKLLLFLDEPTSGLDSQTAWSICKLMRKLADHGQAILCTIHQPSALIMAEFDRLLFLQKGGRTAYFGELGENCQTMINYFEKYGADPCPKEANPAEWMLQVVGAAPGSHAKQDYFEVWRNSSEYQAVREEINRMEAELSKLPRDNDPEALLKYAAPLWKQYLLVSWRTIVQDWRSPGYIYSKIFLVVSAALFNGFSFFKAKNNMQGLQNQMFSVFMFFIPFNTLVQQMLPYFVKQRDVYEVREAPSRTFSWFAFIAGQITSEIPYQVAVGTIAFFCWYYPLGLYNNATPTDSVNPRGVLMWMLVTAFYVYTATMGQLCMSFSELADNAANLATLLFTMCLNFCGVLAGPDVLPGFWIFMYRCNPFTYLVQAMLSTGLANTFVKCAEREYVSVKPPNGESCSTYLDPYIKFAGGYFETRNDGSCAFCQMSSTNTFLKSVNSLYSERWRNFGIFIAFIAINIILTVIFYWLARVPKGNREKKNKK

Substance | target or system | test | system | setting | how to read | endpoint | result
milbemycin oxime | CDR1 (Candida albicans, UniProt Q5ANA3) | binding, microscale thermophoresis |  | 1.22 nM |  | fraction bound | -5.35%
KEAFWDRCASVINLMSSKMLQINA | CDK5 with p25 | phosphotransferase activity, radiometric | peptide | concentration not given, 10% DMSO, together with: histone substrate | relative to: p5-WT peptide | activity change | 42%
human ME2 K74H |  | enzyme activity, activator, NADH absorbance | recombinant enzyme | range over 0 to 5 mM, pH 7.4 | relative to: wild type | activation fold | 1.7
B1 (human ADP/ATP translocase 3) | PP6C (human) | co-immunoprecipitation, IP-MS | CYB5R4 knockout cells | concentration not given | relative to: CYB5R4 knockout over parental | log2 fold change | -0.19
BzATP | P2X purinoceptor 7 (P2rx7, Rattus norvegicus, UniProt Q64663, Q143A) | ion current, agonist, two-electrode voltage clamp | Xenopus oocytes | 3.7 µM |  | normalized current | 0.32 and 0.175 and 0.157
human ME2 K57S |  | enzyme activity, NADH absorbance |  | without fumarate, together with: L-malate varied |  | Hill coefficient | 1 ± 0.01
KEAFWDRCLSGINLMSSKMLQINA | CDK5 with p25 | phosphotransferase activity, radiometric | peptide | concentration not given, 10% DMSO, together with: histone substrate | relative to: p5-WT peptide | activity change | 54%
human ME2 I58F |  | enzyme activity, NADH absorbance |  | without fumarate, together with: L-malate varied |  | Hill coefficient | 2.24 ± 0.19
KEAFWDRCISVINLMSSKMLQINA | CDK5 with p25 | phosphotransferase activity, radiometric | peptide | concentration not given, 10% DMSO, together with: histone substrate | relative to: p5-WT peptide | activity change | 36%
colistin | Acinetobacter baumannii | broth microdilution | clinical isolate RKI-No_596/16 |  |  | MIC | > 64 µg/mL
human ME2 I99V |  | enzyme activity, NADH absorbance |  | without fumarate, together with: L-malate varied |  | Hill coefficient | 1.58 ± 0.05
human histone deacetylase 1 | PP6C (human) | co-immunoprecipitation, IP-MS | CYB5R4 knockout cells | concentration not given | relative to: CYB5R4 knockout over parental | log2 fold change | -0.37
B2 | CAMK2A (Homo sapiens, UniProt Q9UQM7, D135N/E236K) | binding, ITC | kinase domain D135N/E236K |  |  | −TΔS | -0.954 kcal/mol and -1.21 kcal/mol
11-deoxycorticosterone | human CYP11B2 | substrate, stopped-flow kinetics |  | 4-state closed model, together with: adrenodoxin 40-fold excess |  | rate constant k2 | 4.68 min⁻¹
KEAFWDRMLSVINLMSSKMLQINA | CDK5 with p25 | phosphotransferase activity, radiometric | peptide | concentration not given, 10% DMSO, together with: histone substrate | relative to: p5-WT peptide | activity change | 53%
